Published values collected from several papers.
Protocols differ between the studies behind these lines. Numbers after ± are the reported error. Values after ≈ are worked out from the molar mass of the structure shown.

The inhibition of `O=C(NNc1ccc(Cl)c(Cl)c1)c1nnc(CC23CC4CC(CC(C4)C2)C3)o1` is reported as 66.3 ± 0.8% (Fusarium graminearum; fungal growth, inhibitor; 50 µg/mL).
The inhibition of `CCc1cncnc1N1CCN(Cc2nc3ccc(C(F)(F)F)cc3[nH]2)CC1` is reported as 0% (murine hepatitis virus; viral replication, nanoluciferase reporter; DBT; 1 µM; relative to: DMSO vehicle).
`O=C1NC(=O)C(C2C3=C(CCCC3=O)Oc3ccc([N+](=O)[O-])cc32)C(=O)N1` (stereo not drawn): “mean lipid content” 0.536 OD492 (3T3-L1 preadipocytes; adipogenesis, Oil Red O staining; IC20, 14 days).
The TGI of `COc1cc(CCC[P+](c2ccccc2)(c2ccccc2)c2ccccc2)c(OC)c2c1OCO2.[I-]` is reported as -4.13 log M (DU-145; SRB).
With `CC[C@H](C)[C@H](NC(=O)[C@H](C)NC(=O)[C@H](CCCCN)NC(=O)[C@H](CC(C)C)NC(=O)[C@H](C)NC(=O)[C@@H](NC(=O)[C@H](Cc1c[nH]cn1)NC(=O)[C@H](CC(C)C)NC(=O)[C@@H](NC(=O)[C@@H](NC(=O)[C@H](CCCCN)NC(=O)[C@H](C)NC(=O)[C@H](C)NC(=O)[C@H](CO)NC(=O)[C@H](CCCCN)NC(=O)[C@H](Cc1ccccc1)NC(=O)[C@@H](NC(=O)[C@H](CCCCN)NC(=O)[C@H](CC(C)C)NC(=O)[C@H](Cc1ccccc1)NC(=O)[C@H](CO)NC(=O)[C@H](CCCCN)NC(=O)[C@H](Cc1c[nH]c2ccccc12)NC(=O)[C@H](CCCCN)NC(C)=O)[C@@H](C)O)[C@@H](C)O)C(C)C)[C@@H](C)O)C(=O)N[C@@H](CO)C(=O)N[C@@H](CO)C(N)=O` the MIC90 was 8 µg/mL (≈ 2.73 µM) (Klebsiella pneumoniae; 40 strains).
With `c1ccc(C(NCCNC(c2ccccc2)c2ccccc2)c2ccccc2)cc1` the inhibition was -13% (AMPA receptor, rat; binding; 10 µM, Eurofins selectivity panel).
Under “log2 fold change”, `CC[C@H](C)[C@@H]1NC(=O)[C@@H]2CCCN2C(=O)[C@H](CC(C)C)NC(=O)[C@H](CC(C)C)NC(=O)CNC(=O)[C@@H](NC(=O)[C@@H](NC(=O)[C@H](CC(=O)O)NC(=O)CNC(=O)[C@@H](NC(=O)[C@H](C)NC(=O)CNC(=O)[C@H](CCCCN)NC(=O)[C@H](CC(C)C)NC(=O)[C@H](CC(C)C)NC(=O)[C@H](CCCCN)NC(=O)CNC(=O)[C@@H](NC(=O)[C@@H](N)CC(C)C)C(C)C)C(C)C)C(C)C)CSSC[C@@H](C(=O)O)NC1=O` is recorded as -2.15 (RNA-seq, measured: Cd52; mouse, traumatic brain injury model, frontal cortex and hippocampus; dose not given; relative to: TBI alone).
For `N.N.[Cl][Pt][Cl]`, the apoptotic cells was 26.3% (CAL-27; flow cytometry sub-G1; 3 µM, 24 h).
The toxicity of `COc1ccc(-n2nc(C(C)=O)s/c2=N\N=C(/C)c2ccc(NC(C)=O)cc2)cc1` is reported as 62.4% (HepG2; 0.156 µM).

Repeated from above:
The inhibition of `CCc1cncnc1N1CCN(Cc2nc3ccc(C(F)(F)F)cc3[nH]2)CC1` is reported as 0% (murine hepatitis virus; viral replication, nanoluciferase reporter; DBT; 1 µM; relative to: DMSO vehicle).
